Measurements from different studies.
Parts stem from different laboratories: compare values within a part only.

Block 1
Target: Centromere-binding protein 1, full length, N-terminal tag (CBF1, Saccharomyces cerevisiae, UniProt P17106, residues 1-351)
Chain of UniProt P17106 (whole entry, looked up): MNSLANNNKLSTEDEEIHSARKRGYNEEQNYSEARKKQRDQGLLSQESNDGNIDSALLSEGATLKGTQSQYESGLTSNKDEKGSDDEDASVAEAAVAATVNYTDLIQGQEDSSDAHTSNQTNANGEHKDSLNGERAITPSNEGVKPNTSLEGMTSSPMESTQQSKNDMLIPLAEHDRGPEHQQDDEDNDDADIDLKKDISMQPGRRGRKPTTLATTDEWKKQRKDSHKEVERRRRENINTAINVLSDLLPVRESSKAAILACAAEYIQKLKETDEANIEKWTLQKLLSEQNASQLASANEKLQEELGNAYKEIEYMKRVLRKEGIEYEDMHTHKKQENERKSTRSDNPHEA
Technique: protein-binding microarray
Form: double-stranded DNA, one strand shown
Matrix: in vitro
Concentration: 0.8 µM
Setting: whole 60-bp probe, no competitor
Direction: higher = stronger binding
Sequence | fluorescence intensity
GAATTAGATTACGTGCAGGTGAGGTTATACAGATAGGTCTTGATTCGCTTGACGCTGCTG | 607 a.u.
CTAATGACGGATCATCACCACACGAAGAATAAATTCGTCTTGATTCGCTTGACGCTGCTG | 558 a.u.
CTATTTTCACGTGCTGCGCTGATGTAAGCAGCATTCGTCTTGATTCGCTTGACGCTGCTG | 6960 a.u.
GAAACTCTCGTCAGCTTTGTCACGTATTCAACTTAGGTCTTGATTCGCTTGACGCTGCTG | 741 a.u.
CTAGACATGAGCCCACTGATGACCATTGCTGCCTTCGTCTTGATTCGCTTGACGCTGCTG | 519 a.u.
GAATTCTTTCTTGGTGACATGAAAATAATAATATAGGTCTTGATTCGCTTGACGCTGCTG | 534 a.u.
CTACAAGTGACTCGAGACCACGTGGAAAGATCCTTCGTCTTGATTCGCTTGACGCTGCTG | 5450 a.u.
CTAGCAACGTTGCTCCTCACCTGCATCTTGTAATTCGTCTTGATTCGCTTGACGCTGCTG | 542 a.u.

Block 2
Target: Sal-like protein 4, full length isoform B (SALL4, Homo sapiens, UniProt Q9UJQ4-2, residues 1-616)
Technique: universal PBM
Form: double-stranded DNA, one strand shown
Matrix: in vitro
Concentration: not given
Setting: 8-mer, flanks averaged, mean of replicates
Direction: higher = stronger binding
Sequence | E-score
TGTCAAAA | 0.223
GATCGGTA | 0.00214
TTGTGAAA | 0.122
CGATTTCA | 0.0459
GGACGGAA | -0.141
AAGTCGGC | -0.25
CGACGCCA | -0.204
GAAGTGCA | -0.00212
ACGAAGGG | -0.22
TACATGCA | 0.16
AGGGCGAG | -0.28

Block 3
Target: Histone acetyltransferase KAT6A, winged helix 2, GST fusion (KAT6A, Homo sapiens, UniProt Q92794, residues 85-181)
Technique: protein binding microarray
Form: double-stranded DNA, one strand shown
Matrix: in vitro
Concentration: not given
Setting: 8-mer, flanks averaged, mean of 2 arrays, mostly near background
Reference: not given
Direction: higher = stronger binding
Construct (chain): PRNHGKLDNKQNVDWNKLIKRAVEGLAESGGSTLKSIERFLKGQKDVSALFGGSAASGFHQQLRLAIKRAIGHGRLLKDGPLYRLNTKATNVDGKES
Sequence | E-score
AGTTTTCG | 0.195
ATCGCCGA | 0.21
TAACAATA | -0.115
GCAGTGGA | 0.149
ACCTGCGT | -0.035
CCTGTACA | -0.0597
CTGAGATC | -0.0513
TATGTAAA | 0.00854
CCGTAAAC | -0.0616
ATCTGACC | 0.0444
CTGGTGAC | 0.017
AGGCTGCC | 0.0684
ATAGCGAT | -0.0245

Other studies, line by line
Substance | target | test | test system | conditions | scale | measurement | result
PhoQ, residues 284 288 289 292 302 303 SASVAL | PhoP, residues 12 14 15 18 19 LHATL (Escherichia coli, UniProt P23836) | Sort-seq, measured: YFP reporter | E. coli | PhoQ-PhoP variant library, together with: 10 µM Mg2+ | reference: high Mg2+ state, higher = stronger signaling | fold induction | 9.73

For quick reference, copied from above (block 1):
Sequence | fluorescence intensity
CTACAAGTGACTCGAGACCACGTGGAAAGATCCTTCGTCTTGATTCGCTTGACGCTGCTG | 5450 a.u.
CTATTTTCACGTGCTGCGCTGATGTAAGCAGCATTCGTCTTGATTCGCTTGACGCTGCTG | 6960 a.u.
